Published values collected from several papers.
Each numbered part is a random draw from the data of one study; scales do not carry over between parts.

Series 1
Target: Centromere-binding protein 1, full length, N-terminal tag (CBF1, Saccharomyces cerevisiae, UniProt P17106, residues 1-351)
Chain of UniProt P17106 (whole entry, looked up): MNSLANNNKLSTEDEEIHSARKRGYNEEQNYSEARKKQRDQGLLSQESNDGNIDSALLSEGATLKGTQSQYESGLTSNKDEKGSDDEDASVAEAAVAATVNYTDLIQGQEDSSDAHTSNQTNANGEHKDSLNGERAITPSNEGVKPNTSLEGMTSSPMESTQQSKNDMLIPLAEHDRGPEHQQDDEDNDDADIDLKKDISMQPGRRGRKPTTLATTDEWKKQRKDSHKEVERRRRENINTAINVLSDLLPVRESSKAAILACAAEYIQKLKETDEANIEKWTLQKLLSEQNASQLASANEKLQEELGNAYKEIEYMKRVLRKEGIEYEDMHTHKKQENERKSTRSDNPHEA
Technique: protein-binding microarray
Molecule type: double-stranded DNA, one strand shown
Sample: in vitro
Concentration: 0.8 µM
Setting: whole 60-bp probe, no competitor
Direction: higher = stronger binding
Constant ends, left off below: … GTCTTGATTCGCTTGACGCTGCTG
| Strand | fluorescence intensity [a.u.] |
| --- | --- |
| CTATTGTTTTTAGATCACGATAGCACATTTGAGTTC | 994 |
| GAAATGCTGCACAAAAACGTGCCAGCAATGCAATAG | 778 |
| CTATTTTCAAAACACCACGAAAAGACTTCATTCTTC | 548 |
| GAACTGACCATAGTACATGTGCAAGTTATTCAATAG | 838 |
| GAATGATGTTGCAGACTCGTGATCACAGTTTACTAG | 3280 |
| CTATTTTTTTGTTGGCTCGTGGTTGTTCTCGAATTC | 640 |
| CTACCCAGGCCCACCAACGTGCGCCCACCGCTATTC | 469 |
| GAATTACCTCCTATTCTCGTGCCTGAGCAGCGATAG | 552 |
| GAACTCATATGAGTTCATGTGATATTTCATGTTTAG | 980 |
| CTAAAAAAATGAATGAACGTGTATCATCGTTTATTC | 526 |
| GAAGGCTTATTAAGACATCAGAGTTCATTAAATTAG | 477 |
| GAAAACTAGTCACCACAGGTGAGGCAATTACCGTAG | 495 |

Series 2
Target: Interferon regulatory factor 7, full length, phosphomimetic (IRF7, Homo sapiens, UniProt Q92985, residues 1-503, S471D/S472D/S475D/S476D/S477D/S483D/S484D/S487D)
Chain of UniProt Q92985 (whole entry, unmodified, looked up): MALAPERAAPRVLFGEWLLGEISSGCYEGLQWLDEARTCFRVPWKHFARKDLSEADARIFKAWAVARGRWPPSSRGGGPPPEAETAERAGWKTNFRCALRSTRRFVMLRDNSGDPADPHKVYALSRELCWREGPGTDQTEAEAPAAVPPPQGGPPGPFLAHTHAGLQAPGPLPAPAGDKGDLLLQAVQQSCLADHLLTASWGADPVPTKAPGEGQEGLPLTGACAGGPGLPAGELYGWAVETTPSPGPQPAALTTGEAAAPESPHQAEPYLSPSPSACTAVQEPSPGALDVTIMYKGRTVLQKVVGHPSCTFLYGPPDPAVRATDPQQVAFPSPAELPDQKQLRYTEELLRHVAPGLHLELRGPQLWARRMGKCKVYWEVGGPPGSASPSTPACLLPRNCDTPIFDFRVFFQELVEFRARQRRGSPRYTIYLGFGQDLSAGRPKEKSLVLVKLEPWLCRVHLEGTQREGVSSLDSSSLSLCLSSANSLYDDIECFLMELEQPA
Technique: protein-binding microarray
Molecule type: double-stranded DNA, one strand shown
Sample: in vitro
Concentration: 2200 nM top
Setting: 60-bp whole probe
Together with: salmon DNA 0.4 mg/ml
Relative to: random background probes
Direction: higher = stronger binding
Constant ends, left off below: GCCTAGCAC … GTCTTGATTCGCTTGACGCTGCTG
| Strand | fitted relative affinity [z-score] |
| --- | --- |
| GACGGTTCCCTTTTCTTGACGTGCTAG | 2.23 |
| TTAGGTCTCGGCTTCGGTTAGTGCTAG | 0.554 |
| TCAAATCTCCCATTATAACTGTGCTAG | 0.822 |
| CACGATATCAGTCTCGAGACGTGCTAG | 0.77 |
| TTAGGTTCCATTTTCCTTTAGTGCTAG | 3.6 |
| TACGGTTTCGGGTATCGGGACGTGCTA | 6.39 |
| GTGTTACTAAAATTTCATGAAGTGCTA | 0.33 |
| TTAGGTATCTACTTTCGGTTAGTGCTA | 9.39 |
| TTAGATATCAGTCTCCATTAGTGCTAG | 0.396 |
| GACGGAATGGGGACTGGGGACGTGCTA | -0.343 |

Series 3
Target: Histone acetyltransferase KAT6A, both winged helices, GST fusion (KAT6A, Homo sapiens, UniProt Q92794, residues 1-181)
Technique: protein binding microarray
Molecule type: double-stranded DNA, one strand shown
Sample: in vitro
Concentration: not given
Setting: 8-mer, flanks averaged, mean of 2 arrays, mostly near background
Relative to: not given
Direction: higher = stronger binding
Residues (chain): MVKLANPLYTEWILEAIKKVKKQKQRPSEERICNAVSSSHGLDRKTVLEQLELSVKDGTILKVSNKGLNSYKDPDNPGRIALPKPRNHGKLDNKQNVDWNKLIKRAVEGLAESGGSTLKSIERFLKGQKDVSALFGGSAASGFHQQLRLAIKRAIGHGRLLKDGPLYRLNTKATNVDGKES
| Strand | E-score |
| --- | --- |
| GGCGCACA | 0.278 |
| CGCGATCA | 0.189 |
| GGTTGGCA | -0.178 |
| ATCAAGGG | -0.151 |
| GGACTTGA | -0.0459 |
| TGCGTCAA | 0.0191 |
| AAGGGCAT | -0.3 |
| ACGAATTC | -0.0531 |
| ATGGAATC | -0.0599 |
| CGTAGCTA | -0.143 |
| ATTGAGCG | 0.024 |
| ACCAGAAT | -0.0603 |

Series 4
Target: UBE2O UBC core domain (UniProt Q9C0C9)
Chain of UniProt Q9C0C9 (whole entry, looked up): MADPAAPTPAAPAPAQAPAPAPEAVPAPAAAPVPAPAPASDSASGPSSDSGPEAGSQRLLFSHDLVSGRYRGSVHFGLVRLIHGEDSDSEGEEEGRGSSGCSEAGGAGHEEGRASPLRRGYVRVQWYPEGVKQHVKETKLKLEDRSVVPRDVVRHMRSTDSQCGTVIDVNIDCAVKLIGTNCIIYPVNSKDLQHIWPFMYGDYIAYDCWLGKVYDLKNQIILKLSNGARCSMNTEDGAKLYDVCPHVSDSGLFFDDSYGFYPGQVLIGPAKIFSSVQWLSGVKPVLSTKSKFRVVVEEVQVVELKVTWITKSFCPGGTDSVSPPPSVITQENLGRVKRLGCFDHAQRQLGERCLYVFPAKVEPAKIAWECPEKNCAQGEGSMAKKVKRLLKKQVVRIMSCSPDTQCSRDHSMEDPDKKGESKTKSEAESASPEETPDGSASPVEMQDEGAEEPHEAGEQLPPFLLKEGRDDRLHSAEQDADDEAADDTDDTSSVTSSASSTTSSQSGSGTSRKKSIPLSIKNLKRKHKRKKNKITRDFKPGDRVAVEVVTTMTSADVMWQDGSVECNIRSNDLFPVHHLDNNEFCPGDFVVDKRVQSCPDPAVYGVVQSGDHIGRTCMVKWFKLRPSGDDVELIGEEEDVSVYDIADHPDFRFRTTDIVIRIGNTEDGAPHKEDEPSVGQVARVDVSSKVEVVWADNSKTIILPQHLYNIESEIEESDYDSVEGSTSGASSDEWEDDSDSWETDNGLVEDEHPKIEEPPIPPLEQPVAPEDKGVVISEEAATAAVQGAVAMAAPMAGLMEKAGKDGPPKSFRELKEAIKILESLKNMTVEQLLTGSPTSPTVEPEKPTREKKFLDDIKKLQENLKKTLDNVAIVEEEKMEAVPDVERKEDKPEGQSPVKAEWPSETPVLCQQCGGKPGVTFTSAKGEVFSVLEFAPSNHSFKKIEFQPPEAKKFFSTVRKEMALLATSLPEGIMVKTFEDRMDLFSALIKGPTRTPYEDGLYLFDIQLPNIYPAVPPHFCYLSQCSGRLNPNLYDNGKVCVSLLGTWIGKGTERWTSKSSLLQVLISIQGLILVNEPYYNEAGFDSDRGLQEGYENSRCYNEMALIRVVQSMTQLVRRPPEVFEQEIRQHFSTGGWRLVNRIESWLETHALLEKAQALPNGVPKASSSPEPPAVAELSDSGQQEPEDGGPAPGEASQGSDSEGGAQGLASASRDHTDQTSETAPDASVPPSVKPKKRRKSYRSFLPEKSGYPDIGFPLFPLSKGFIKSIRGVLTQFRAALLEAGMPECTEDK
Technique: yeast two-hybrid
Sample: yeast
Setting: mostly zero background
Relative to: not given
Direction: higher = stronger interaction
B1: MAP3K1 RING domain (UniProt Q13233); chain NSIKDEEEQMCPICLLGMLDEESLTVCEDGCRNKLHHHCMSIWAEECRRNREPLICPLCRSKWRSHDFYS
B2: RNF121 RING domain (UniProt Q9H920); chain MPTKHLSDSVCAVCGQQIFVDVSEEGIIENTYRLSCNHVFHEFCIRGWCIVGKKQTCPYCKEKVDLKRMFS
B3: UBOX5 RING domain (UniProt O94941); chain EQPGSILGPECASCKRVFSPYFKKEPVYQLPCGHLLCRPCLGEKQRSLPMTCTACQRPVASQDVLR
| Molecule | lacZ reporter activity |
| --- | --- |
| GSRLQEINDVCAICYHEFTTSARITPCNHYFHALCLRKWLYIQDTCPMCHQKVYIEDDIK (RNF139 RING domain (UniProt Q8WU17)) | 0 |
| B1 (MAP3K1 RING domain) | 0 |
| B2 (RNF121 RING domain) | 0 |
| B3 (UBOX5 RING domain) | 0 |
| GSDDEEIPFKCFICRQSFQNPVVTKCRHYFCESCALQHFRTTPRCYVCDQQTNGVFNPA (RNF113A RING domain (UniProt O15541)) | 0 |
| YQNEVDDDLVCHICLQPLLQPLDTPCGHTFCYKCLRNFLQEKDFCPLDRKRLHFKLCKK (LNX2 RING domain (UniProt Q8N448)) | 0 |
| PEDRESLKSACVVCLSSFKSCVFLECGHVCSCTECYRALPEPKKCPICRQAITRVIPLY (MUL1 RING domain (UniProt Q969V5)) | 0 |
